Measured values from different studies.
Every numbered part comes from another study and shows a few of its results, in no order. Changes are numbered by the printed parent chain.

Study 1
Target: Ras GTPase-activating protein-binding protein 1, C-terminal RGG region (G3BP1, Homo sapiens, UniProt Q13283)
Sequence of UniProt Q13283 (whole entry, looked up): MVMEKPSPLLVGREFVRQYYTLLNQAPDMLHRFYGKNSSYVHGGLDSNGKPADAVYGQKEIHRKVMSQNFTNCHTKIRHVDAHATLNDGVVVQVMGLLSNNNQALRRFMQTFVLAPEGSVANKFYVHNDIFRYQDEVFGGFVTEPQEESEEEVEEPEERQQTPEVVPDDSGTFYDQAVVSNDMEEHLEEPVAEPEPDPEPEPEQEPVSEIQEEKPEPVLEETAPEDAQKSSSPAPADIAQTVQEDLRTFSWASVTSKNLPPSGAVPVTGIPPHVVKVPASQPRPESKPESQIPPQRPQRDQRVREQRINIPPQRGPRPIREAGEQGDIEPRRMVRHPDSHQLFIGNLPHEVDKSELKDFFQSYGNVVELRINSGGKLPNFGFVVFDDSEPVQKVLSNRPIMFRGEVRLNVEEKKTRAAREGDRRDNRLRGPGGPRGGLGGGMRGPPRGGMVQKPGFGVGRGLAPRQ
Method: RNA Bind-n-Seq
Form: RNA
Medium: in vitro
Tested at: 1 µM
Setting: whole 134-nt RNA, ends assumed
Added: 150 mM KCl
Reference: input library
Direction: higher = stronger binding
All sequences stand within: GGGAGUUCUACAGUCCGACGAUC … UGGAAUUCUCGGGUGUCAAGG
Sequence | log2 enrichment
CAAGUCCUGUGCUACACAUCGUAUGUACCGAAUCGGGGUGGGGAAAGGGGUGGGGAAAGUAUUAUGUUACGCCGUUCGGAUCUGCACUUC | 2.69
UCCUGUGCUACACAUCGUAUGUACCGAAUCGGGGAAAAAGGGGAAAAAGGAAAAAGGGGAAAGUAUUAUGUUACGCCGUUCGGAUCUGCA | -1.12
UCAAGUCCUGUGCUACACAUCGUAUGUACCGAAUCGGGGCCCGGGCCCGGCCCGGAAAGUAUUAUGUUACGCCGUUCGGAUCUGCACUUC | -1.7
AGUCCUGUGCUACACAUCGUAUGUACCGAAUCGGGGAAAGGGGUUUGGGGUUUGGGGAAAGUAUUAUGUUACGCCGUUCGGAUCUGCACU | 3.58
AAGUCCUGUGCUACACAUCGUAUGUACCGAAUCGGGAAAGGGUUUUUGGGUUUGGGAAAGUAUUAUGUUACGCCGUUCGGAUCUGCACUU | 0.964
CACAGUCAACACGCACCCACACAGACACAGAGGGAAGGGGUUGGGAUGGGGACAGGGUGCACAGCAGGGCGGGGUAGGACCCCAGCCCCU | -0.234
GUCCUGUGCUACACAUCGUAUGUACCGAAUCGGUUUUUGGGGUUUUUGGUUUUUGGGGAAAGUAUUAUGUUACGCCGUUCGGAUCUGCAC | -1.04
GUCCUGUGCUACACAUCGUAUGUACCGAAUCGGGGAAAAAGGAAAAAGGGGAAAAAGGGAAAGUAUUAUGUUACGCCGUUCGGAUCUGCA | -1.14
AGUCCUGUGCUACACAUCGUAUGUACCGAAUCGGGUUUGGGAAAGGGUUUUUUUGGGAAAGUAUUAUGUUACGCCGUUCGGAUCUGCACU | 0.968

Study 2
Target: Histone acetyltransferase KAT6A, both winged helices, GST fusion (KAT6A, Homo sapiens, UniProt Q92794, residues 1-181)
Method: protein binding microarray
Form: double-stranded DNA, one strand shown
Medium: in vitro
Tested at: not given
Setting: 8-mer, flanks averaged, mean of 2 arrays, mostly near background
Reference: not given
Direction: higher = stronger binding
Residues (chain): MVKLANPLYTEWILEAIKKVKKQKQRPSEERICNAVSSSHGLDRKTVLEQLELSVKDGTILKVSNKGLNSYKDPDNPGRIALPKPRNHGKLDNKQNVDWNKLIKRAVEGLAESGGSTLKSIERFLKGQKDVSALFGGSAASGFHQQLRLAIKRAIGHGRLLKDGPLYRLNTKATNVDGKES
Sequence | E-score
AGAGTTCC | -0.0041
GCAACCCC | 0.0939
CGACAACG | 0.148
CGCTAGAC | 0.178
AAACGTGC | -0.0355
AAAGATAG | -0.13
CCACGGAC | 0.166
CGCGACAC | 0.214
GCTTACAC | 0.0437
ATCGTGGC | -0.0264
TCAAACAA | 0.024
CCCAGCTA | -0.293
CAATGTAC | -0.115
CGCACGTA | 0.0373
AGACACAC | -0.00134
TCGGAAGA | 0.0586
GAATGAGC | -0.0978
CAGCCAGG | -0.258

Study 3
Target: CCND3, cyclin fold, Cln2 fusion (human)
Method: yeast growth competition, sequencing
Medium: yeast
Setting: weak parent motif
Reference: not given
Direction: higher = stronger binding
Starting sequence: CDKN1C docking peptide (human); TSACRSLFGPVDH
Change | normalised enrichment score
TSACRSLFGPADH [V11A] | 0.132
TSACASAFGPVDH [R5A L7A] | -0.101
TSAARSLFGPVDH [C4A] | 0.121
ASACRSLFGPVDH [T1A] | 0.144
TSACKSLFGPVDH [R5K] | 0.422
TSACRSLLGPVDH [F8L] | 0.139
TSACRSLFGPVAH [D12A] | 0.16
TSACRALFGPVDH [S6A] | 0.116
TSACRSLFGPVDA [H13A] | 0.129

Study 4
Target: Phosphate system positive regulatory protein PHO4, full length, GST-tagged (PHO4, Saccharomyces cerevisiae, UniProt P07270, residues 1-312)
Method: competition protein-binding microarray
Form: double-stranded DNA, one strand shown
Medium: in vitro
Tested at: 2 µM
Setting: whole 60-bp probe, lowest competitor level
Added: Cbf1 competitor, 0.05 µM
Direction: higher = stronger binding
All sequences stand within: … GTCTTGATTCGCTTGACGCTGCTG
Construct (chain): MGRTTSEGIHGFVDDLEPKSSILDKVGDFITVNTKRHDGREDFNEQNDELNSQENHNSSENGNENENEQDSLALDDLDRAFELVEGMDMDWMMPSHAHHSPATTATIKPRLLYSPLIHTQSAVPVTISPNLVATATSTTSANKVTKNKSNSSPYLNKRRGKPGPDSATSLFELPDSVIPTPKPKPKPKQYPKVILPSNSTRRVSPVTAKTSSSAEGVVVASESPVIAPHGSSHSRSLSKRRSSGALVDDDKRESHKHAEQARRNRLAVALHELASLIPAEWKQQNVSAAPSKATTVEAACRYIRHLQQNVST
Sequence | fluorescence intensity
GAAAAGCTTATTTTTTTCGTGCAAACTCCGTTCTTA | 3490 a.u.
TCGAGGCAAGCTCAAAACGTGACGGCTACACCCCCT | 11400 a.u.
CTTTCCCGATCTTGTCACCCTACTTTAGCACATTTG | 4010 a.u.
AAATTACTAAGTTGCTGCGTGGGTGACGCCGTATGA | 9300 a.u.
AAGACTGTACATTCACACGGGAAACGAGAGAAAGAA | 5330 a.u.
AGTTCTCTATTCCGCACCGTGCCGAGTTGTGGCAAA | 9920 a.u.
AAATTACTAAGTTGTATGGTGGGTGACGCCGTATGA | 3920 a.u.
CTAACGAAGGTTTGTCACACTACTTACAAGCCAAGT | 4180 a.u.
TTCTTTGGTCTTGGCCAGAGGTCCCAGAGTCGAAAA | 2000 a.u.
CATACCCAACCTTGTCACCGCACTTAAGATATTTGT | 4040 a.u.
TTGGGGCAGATACTTCGTGTGACAGTGGCCAATTCA | 4600 a.u.
CTTCTGTAAATTTGCCAGGTGGGTGGACGCGCCCCG | 5480 a.u.
GTTGACTGTCCCCGTCACGATATCTTAATGAGTACT | 5280 a.u.
TTGTACGATTGTTTTCACGTGTTTTTACATTTTCTG | 13500 a.u.
GTCTTGTCTCATTGAGGGGTGGGTGTCCCCACTTCA | 4920 a.u.
GTCTTGTCTCATTGGGCCGTGGGTGTCCCCACTTCA | 6080 a.u.
CGTCCTAGTGATTGTCACCTTACTTCCATGAGGAAG | 4490 a.u.

Study 5
Target: RNA binding protein fox-1 homolog 2, RRM domain, GST-SBP tag (RBFOX2, Homo sapiens, UniProt O43251-10, residues 100-194)
Method: RNA Bind-n-Seq
Form: RNA
Medium: in vitro
Tested at: 365 nM
Setting: natural RNA segment, single round, ends assumed
Reference: no-protein control
Direction: higher = stronger binding
All sequences stand within: GGGAGUUCUACAGUCCGACGAUC … UGGAAUUCUCGGGUGCCAA
Sequence | RBNS enrichment (R)
UGGGAGUGCAUUGAGAGAUGAUGUCCAUCUGAUAUAUUCCUGUGAAAUAAACUGCCAGCAAACUUUCUAACUUGUAUUUUAACUGUUAAAGAAGAGAUUAAAAACUUCGG | 0.52
UGGUUCUUAUGGCAUCUAAAUUACUGAAUAAAUUAUUAAUCCAUUAAUCAGUGAAUCAAAUUAUGAUUACAAUUAUCAAAUGAAUGCUCAGCAUUAAUUGAAAACUGUUU | 0.365
GUAUUGAAAUAAAGUAGAAAAUGUUCGGUAUCAUAUUUGUAACUAUCAACUUUUAAAAACAUUUGACUGUUUUUGUUACAUGCAUUGUAUUUCUGCUUUGUCUAUAAGAA | 0.592
AUCUGCAGUCUUUUGUUAUUUCUGCAGGCUACACCCUUAAUUUGCAGAGGCCAUUUUGUUGUUUGUUUGAUGCUGAAGCUGUUGUUAAAAUGCCCCAAACUCCAAGGCAG | 0.835
CUACCAGAGAGCAGAAUGCUUGUGGCACCCAUUUGAGGCACAGCCCUCAGGAUGCAGGGUGCUGGGUCUUCUGGUUUUGUUUGGGUUAAAACAGAACUUUCCCAUUAUCU | 6.87
UUCCAAACACCACACGUUGAAAGCAUUUAUAAAUCCAAGUCUGAAACUCUGCGCUCUAGUACUGCUGUUAAGAUACACAACUUGUUUCUUAGUUCAUAUAAUCUCGGGAU | 1.58
AGGUACUAAUUUGUAGCUGCUCUGAAGUAAGGAUUUCGGAUUCAGCUGGUAGGGAAAGACUCUGCACCUGCUGUCUUAGGGAAGAAAUGGUUCAAAUCCAUGUGGUGACA | 0.604
AAGAAAUACAGAGUAAAGCUAAAAUAAUUGUUUACCAAUAUUUUGAGAGGUAACAAAUAGGGAGAUACGGGUUGAGACUGCAUAAAAAACGUACUGCUGGUUGAAUAUCU | 1.05
